Results collected from several papers.
Protocols differ between the studies behind these lines. ± gives the spread as reported.

`CC(C)c1cnc(-c2cc(Cl)ccc2F)cc1Nc1ccncc1C(=O)NC(CO)CO` gave an IC50 of 0.025 ± 0.00432 µM (TGF-β receptor type 1 (mouse); SMAD2 Ser465/467 phosphorylation, inhibitor; 4T1; unbound drug, added: TGF-β).
With `CC(C)c1ccc(C(=O)Nc2ccc(CN3CCN(C)CC3)c(C(F)(F)F)c2)cc1C#Cc1cnc2cccnn12` the IC50 was 0.472 µM (RIPK2; NF-kB reporter gene, inhibitor; HEK-Blue NOD2 NF-kB-SEAP; 8 h, added: 1 µg/mL L18-MDP).
`O=C(CCCC(=NO)n1c2ccccc2c2ccccc21)NO` gave an IC50 of 1 µM (histone deacetylase, mouse; inhibitor; GL261 cell nuclear extract).
For `O=C1/C(=C/c2ccc3c(c2)OCCO3)SC(=S)N1[C@@H]1O[C@H](CO)[C@@H](O)[C@H](O)[C@H]1O`, the IC50 was 18.2 ± 0.31 µM (DNA; DNA intercalation, methyl green displacement).
For `Cc1cc(N)c2cc(NC(=O)Nc3ccc4nc(C)cc(N)c4c3)ccc2n1`, the IC50 was 10.2 ± 0.2 µM (factor Xa; anticoagulant neutralization, chromogenic; added: fondaparinux 0.2 IU/mL, human antithrombin III).
For `O=C(CCc1ccc(CNC(C(=O)OC2CCCC2)C2CCCCC2)cn1)NO` (centres unmarked), the IC50 was 0.055 µM (HDAC from HeLa nuclear extract; enzyme activity).
`O=C(CCCCc1ccc2c(c1)c1ccccc1n2Cc1ccccc1)NO` has an IC50 of 0.8 µM (histone deacetylase, mouse; inhibitor; GL261 cell nuclear extract).
With `COc1cc(CCC(C)=O)ccc1O` the IC50 was 1.25 µg/mL (mAb 2-LD2; antibody binding, indirect competitive ELISA; added: coating antigen hapten 4-OVA).
For `NCCCCC(N)C(=O)NC[C@@H]1O[C@H](O[C@H]2[C@@H](O)[C@H](O[C@@H]3[C@@H](O)[C@H](NC(=O)C(N)CCCCN)C[C@H](NC(=O)C(N)CCCCN)[C@H]3O[C@H]3O[C@H](CNC(=O)C(N)CCCCN)[C@@H](O)[C@H](O)[C@H]3NC(=O)C(N)CCCCN)O[C@@H]2CO)[C@H](NC(=O)C(N)CCCCN)[C@@H](O)[C@@H]1O` (some centres unmarked), the IC50 was ~3 µM (RNase P holoenzyme Escherichia coli; 37 °C, added: 10 mM Mg2+).
The IC50 of `CC(C)=CCC/C(C)=C/Cc1c(CCC(=O)c2ccc(O)cc2O)ccc(O)c1O` is reported as 13.6 ± 2.19 µM (mitochondrial complex I-III (bovine heart); NADH-cytochrome c reductase, inhibitor).
For `Cc1cc(N)c2cc(NC(=O)COCC(=O)Nc3ccc4nc(C)cc(N)c4c3)ccc2n1`, the IC50 was 39.5 ± 1.6 µM (factor Xa; anticoagulant neutralization, chromogenic; added: fondaparinux 0.2 IU/mL, human antithrombin III).
`CCCCC/C=C/C(=O)CCc1ccc(O)c(OC)c1` gave an IC50 of 0.00057 µg/mL (mAb 2-LD2; antibody binding, indirect competitive ELISA; added: coating antigen hapten 2-OVA).
`Cc1cc(N)c2cc(NC(=O)CCC(=O)Nc3ccc4nc(C)cc(N)c4c3)ccc2n1` has an IC50 of 13.7 ± 2.7 µM (factor Xa; anticoagulant neutralization, chromogenic; added: enoxaparin 0.2 IU/mL, human antithrombin III).
With `C=CC(=O)N1[C@H](c2ccc3c(c2)OCO3)c2[nH]c3ccccc3c2C[C@@H]1C(=O)N1CCN2CCOC[C@@H]2C1` the IC50 was > 20 µM (human NanoLuc-cyclin E1 N112C; probe labelling, BRET-ABPP; HEK293T cell lysate; 2 h pre-treatment, target engagement, added: probe YZ-01-A 10 µM 90 min).

Repeated from above:
For `Cc1cc(N)c2cc(NC(=O)Nc3ccc4nc(C)cc(N)c4c3)ccc2n1`, the IC50 was 10.2 ± 0.2 µM (factor Xa; anticoagulant neutralization, chromogenic; added: fondaparinux 0.2 IU/mL, human antithrombin III).
For `O=C(CCc1ccc(CNC(C(=O)OC2CCCC2)C2CCCCC2)cn1)NO` (centres unmarked), the IC50 was 0.055 µM (HDAC from HeLa nuclear extract; enzyme activity).
